# Published values gathered from unrelated publications.
# Each numbered part is a random draw from the data of one study; scales do not carry over between parts.

# Series 1 — technique: protein-binding microarray; molecule type: double-stranded DNA, one strand shown; sample: in vitro; concentration: 250 nM; notes: 60-bp whole probe; added: salmon DNA 0.4 mg/ml; relative to: random background probes; direction: higher = stronger binding; shared flanks, not repeated: GCCTAGCAC … GTCTTGATTCGCTTGACGCTGCTG
# Target: Interferon regulatory factor 5, full length, phosphomimetic (IRF5, Homo sapiens, UniProt Q13568-2, residues 1-514, K96S/S451D/S453D/S456D/S462D)
Oligonucleotide,log fluorescence [z-score]
GACGGTTTCGGACTGGGCACGTGCTAG,3.74
TTAGATCTCAATCTCGATTAGTGCTAG,0.569
GAGGAACTGAGTATCGAGACGTGCTAG,1.48
TTAGATTTCGGGACTGGATGAGTGCTA,2.49
GACGGTCTGGGACTGGGGACGTGCTAG,-0.624
TGGGCTACCGGGTCCCTCTTGTGCTAG,-0.768
CGGAATTTCCCTCTGCTCCTGTGCTAG,0.714
GACGCTATCAGTCTCGAGACGTGCTAG,1.69
TTAGGTTTCCTTATGCTTTAGTGCTAG,0.844
TTAGGTATCCTACCGCTTTAGTGCTAG,-0.154
TCAGAAATTCCTCTGAGACTGTGCTAG,-0.0541
GACGATACCAGACTGGAGACGTGCTAG,0.467
TCAATTTTCTTTAACTCACTGTGCTAG,1.29
TTAGATATCGGGTATTGATTAGTGCTA,2.49
GACGATATCGCGTTTCGAGACGTGCTA,1.84
ATTGCTTCCTCTTTACTGCTGTGCTAG,0.676
AGACCTTCACCTCTCTGTCCGTGCTAG,0.11
CCTCTGCTCCTCTTTTTTTGGGTGCTA,0.232
CTGTGTGTCAGGTTTACTAGGGTGCTA,-0.506

# Series 2 — technique: EMSA with sequencing; molecule type: double-stranded DNA, one strand shown; sample: in vitro; concentration: 10 and 20 nM; relative to: negative control set to 0; direction: higher = stronger binding
# Target: Hepatocyte nuclear factor 3-alpha (Foxa1, Mus musculus, UniProt P35582, residues 1-468, full length assumed)
# Chain of UniProt P35582 (whole entry, looked up): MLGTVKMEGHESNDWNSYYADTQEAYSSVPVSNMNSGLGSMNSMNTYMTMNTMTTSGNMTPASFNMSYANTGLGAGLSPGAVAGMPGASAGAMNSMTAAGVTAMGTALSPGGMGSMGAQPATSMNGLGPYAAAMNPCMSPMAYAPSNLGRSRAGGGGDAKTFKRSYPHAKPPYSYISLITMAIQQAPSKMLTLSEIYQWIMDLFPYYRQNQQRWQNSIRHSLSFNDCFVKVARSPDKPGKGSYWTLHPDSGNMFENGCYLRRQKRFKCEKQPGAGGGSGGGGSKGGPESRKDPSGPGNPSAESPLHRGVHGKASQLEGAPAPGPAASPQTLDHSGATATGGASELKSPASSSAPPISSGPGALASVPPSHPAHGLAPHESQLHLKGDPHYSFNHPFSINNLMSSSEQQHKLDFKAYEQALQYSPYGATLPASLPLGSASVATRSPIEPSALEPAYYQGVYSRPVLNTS
# Notes: whole designed probe, mean of two concentrations, ends assumed
Oligonucleotide,normalised bound fraction [ratio]
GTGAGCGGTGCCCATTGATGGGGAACATAAAGCTTTTCACCTGACGCAGGATAATAGCGAGTGCATGTGTGCTGGTTTGTTTACTGTGAGTCTCTCAGAGGAAATCATGTGCATCTGTCTGTTTACTTTTCCGTGGAACCTAGAAGGTCACCTCTAAAAATAATCTTGCTCGGTGTTAGAGTTTCTGTGACACAGAGGTACATACCTCACATGCTCTCCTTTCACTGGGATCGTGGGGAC,0.48
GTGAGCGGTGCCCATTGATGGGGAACCTTTATTTTTCAGGCCATCCGTTGCACACTGGTAAACTGCACATGTGAATGTTTTCAGCCAGGGAAGATTAACCTGAGGACTTGTGATCAGTGTAAACATGGCTGGGTGGCACATGGTGAGGAAAATCTGGGCTTTTCTTCCCGTTCTTATTATGTTCATGTTCGTGTGTGTGTGTGTGTGTGTGTGTGTGTGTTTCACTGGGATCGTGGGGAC,0.179
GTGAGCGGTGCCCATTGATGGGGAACGCTCCTCACCCCCAACTGGGGGCCTGAGTAGGGACAGCACAGAGGCTGGTGCCTGCTGCTCTTCAGTCTCTGTTTCCACGGCTCAAACCAAAGTAATCTACAGAATGGCCATGTAGGTGCAAAGTACCAATGACAGCATGGACCCTTGGGTGGGCTCCAACACTCACCCTAATAAAGCTGGGGAGGAAGGGGCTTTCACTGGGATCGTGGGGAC,-0.0811
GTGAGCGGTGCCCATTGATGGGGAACATCTTCCCCCTCTTCCTTGCCCCACCAGCTCACCTTCCCGGGTTATTTGCACAAAGGAAAATAAATAAAGCCGGCATTCGTTAACCCTCTTCACGCGCATACTGCTGTTTGCTCTGCATCTAACATGGTCCTTACGCGAGGCGTGGCTCCGGGAGAGCAAAGCACCGTGTCAGGCGCATGATCCGGGGTGGCCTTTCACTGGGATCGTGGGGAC,0.382
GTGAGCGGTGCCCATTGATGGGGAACGACAAACACATCTAGCTCCTAGCATGACTTCAGTGTGAAAAGGCTGGGCTTGGGAGAGCAGCAGGTAGACATGCCTATTAACATTGTGCTGCCATGTTTACTTTTTTTTTGTTTACTTAAATCATGGACAGAAAGCCAAGTGTATAAGTGAAAACCCAAGGGACAATGACATGGGGTAGACTGCAGACCAAGATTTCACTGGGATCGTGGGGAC,0.528

# Series 3 — technique: universal PBM; molecule type: double-stranded DNA, one strand shown; sample: in vitro; concentration: not given; direction: higher = stronger binding
# Target: Sal-like protein 4, full length isoform B (SALL4, Homo sapiens, UniProt Q9UJQ4-2, residues 1-616)
# Notes: 8-mer, flanks averaged, mean of replicates
Oligonucleotide,E-score
ACACACCC,-0.00225
ATTACAAC,0.231
GGCTCCCA,-0.368
GCACGTAC,-0.154
AGATGCTG,-0.0556
GAGGTCCC,-0.257
CTCCGGGA,-0.241
GCGACCAA,-0.106
TCGCCGAA,-0.0643
ATCATCAA,0.205
CAGTGTCG,-0.209
GCTCTTGA,-0.104
GTCTTGCA,0.104
AAGAGGCC,-0.225
GTCCGGAC,-0.0999
GCCAGGGA,-0.281
AGACAACC,-0.0301
GCTGCTGA,-0.252
GACATTGA,0.0139
ACGCGGTC,-0.173

# Series 4 — technique: RNA Bind-n-Seq; molecule type: RNA; sample: in vitro; concentration: 365 nM; relative to: no-protein control; direction: higher = stronger binding
# Target: RNA binding protein fox-1 homolog 2, RRM domain, GST-SBP tag (RBFOX2, Homo sapiens, UniProt O43251-10, residues 100-194)
# Notes: natural RNA segment, single round, ends assumed
# Target sequence (chain): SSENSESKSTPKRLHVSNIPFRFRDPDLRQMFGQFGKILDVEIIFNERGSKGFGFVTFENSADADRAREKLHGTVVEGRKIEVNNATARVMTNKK
Oligonucleotide,RBNS enrichment (R)
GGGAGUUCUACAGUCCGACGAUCGCUUGGCCUGCAACAUGGGAGGCUUGGGACGGGGGUCUUGGACCUGCUCAUGACCCCUGAGCAGCCUGCAAUGAGGUGUGUGUGCCCAGCCACUUGGCUGGGCAGGGAGAUGGAAUUCUCGGGUGCCAA,0.523
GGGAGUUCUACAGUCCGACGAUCAGGUUGACCAGCAGUGGCCUUACCUGGCCUCUCAGGUGGAUGGAGGCUGUUCUCAUCUGGGGCUGUCUCUUGAUUAAGGCUGUCACCUGUUUGUAUAGGGACCAUGUUUCUGGAAUUCUCGGGUGCCAA,0.286
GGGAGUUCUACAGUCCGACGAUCAGCAAAUAUUGUCUUCAAAAGAAUGCACAAGAACCACAAUUAAGAUGUCAUAUUAUUUUGAAAGUACAAAAUAUACUAAAAGAGUGUGUGUGUAUUCACGCAGUUACUCGUGGAAUUCUCGGGUGCCAA,0.497
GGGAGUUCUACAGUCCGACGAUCCUCCAUGACCCUCUGAGUGAUGGUUCUUUUGCGCCCUGUAGCUGUUCUAGGAUAGGAUGCAUGUUAGUAAGUUACGUAUGCAAGUCUGAGCGCGCGCGGCUGAUGGACAUUGGAAUUCUCGGGUGCCAA,1.12
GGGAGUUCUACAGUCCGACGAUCCUCAGCCACUGGUACUCUGAGGCCCUUGAGGCUCUUUGUAAAGCUCUUUUAUAUCUAUUGACAAAGGUGUGGGGUCUGGCAAAUGAAGUGUGCUGUUCUCAGCCUAAGAUUGGAAUUCUCGGGUGCCAA,0.571
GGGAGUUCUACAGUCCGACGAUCCUUGGUUUGACCUAAAACAUCUGAUUAAUAUAGGCUAGCUGAUUUCUUAAAAAUUCGUUGCAUUGAAGGAUAUUUUGCAUGUCUGUAACACCUGUCAAUACUUGUUUGUAUGGAAUUCUCGGGUGCCAA,4.04
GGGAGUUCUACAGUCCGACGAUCGGAGAUCAAACAUCAAUCAUCCCUGUCCAUCAGGUCAUUGAUAAGGUCAAGGGUUAUUGCAAUGCUCAUUCAGACAACUUCUAUAAAAAUAUUAUCAUGUCAGACACCUUUGGAAUUCUCGGGUGCCAA,0.441
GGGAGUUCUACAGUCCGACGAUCUUUAAGUCCUCUAAUAAAAAUAAUGAGCCCUCCAAGUCCCUCUUGAUAGCUUCUAUUUGUUAGAAGAUGACCUAAGUCAGAAAAAAGUAGUUCCCCCUUCCUGAGAGACUUGGAAUUCUCGGGUGCCAA,0.228

# Series 5 — technique: protein binding microarray; molecule type: double-stranded DNA, one strand shown; sample: in vitro; concentration: not given; relative to: not given; direction: higher = stronger binding
# Target: Histone acetyltransferase KAT6A, both winged helices, GST fusion (KAT6A, Homo sapiens, UniProt Q92794, residues 1-181)
# Notes: 8-mer, flanks averaged, mean of 2 arrays, mostly near background
# Residues (chain): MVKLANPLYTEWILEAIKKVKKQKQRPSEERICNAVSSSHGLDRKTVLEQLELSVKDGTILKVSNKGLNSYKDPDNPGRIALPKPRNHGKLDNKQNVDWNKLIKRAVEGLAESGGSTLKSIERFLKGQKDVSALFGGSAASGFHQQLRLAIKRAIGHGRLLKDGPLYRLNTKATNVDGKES
Oligonucleotide,E-score
GCGGACCC,0.241
CCACTGTA,-0.079
AAGTCCTC,-0.21
GTAATCAA,-0.0438
ACGCACAA,0.0671
GGTGTGGA,-0.142
GCGGGGTA,0.24
AGACGCTA,0.164
AATATGGG,-0.164
CTGTTCCC,0.0282
CCAGTGCC,-0.0918
ACATGCCA,-0.15
ACCGACTG,0.0569
CGGGCCTA,0.12
CCGAGAGG,-0.00255
CAAAACAC,0.0294
GGAATACA,0.00931
TGGGGCAA,-0.209
GCATCGTA,0.0517

# A few entries again (series 4):
Oligonucleotide,RBNS enrichment (R)
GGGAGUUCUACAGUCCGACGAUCCUUGGUUUGACCUAAAACAUCUGAUUAAUAUAGGCUAGCUGAUUUCUUAAAAAUUCGUUGCAUUGAAGGAUAUUUUGCAUGUCUGUAACACCUGUCAAUACUUGUUUGUAUGGAAUUCUCGGGUGCCAA,4.04
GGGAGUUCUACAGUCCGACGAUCCUCAGCCACUGGUACUCUGAGGCCCUUGAGGCUCUUUGUAAAGCUCUUUUAUAUCUAUUGACAAAGGUGUGGGGUCUGGCAAAUGAAGUGUGCUGUUCUCAGCCUAAGAUUGGAAUUCUCGGGUGCCAA,0.571
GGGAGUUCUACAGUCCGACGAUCGGAGAUCAAACAUCAAUCAUCCCUGUCCAUCAGGUCAUUGAUAAGGUCAAGGGUUAUUGCAAUGCUCAUUCAGACAACUUCUAUAAAAAUAUUAUCAUGUCAGACACCUUUGGAAUUCUCGGGUGCCAA,0.441
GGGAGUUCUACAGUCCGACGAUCAGGUUGACCAGCAGUGGCCUUACCUGGCCUCUCAGGUGGAUGGAGGCUGUUCUCAUCUGGGGCUGUCUCUUGAUUAAGGCUGUCACCUGUUUGUAUAGGGACCAUGUUUCUGGAAUUCUCGGGUGCCAA,0.286
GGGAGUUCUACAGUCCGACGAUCGCUUGGCCUGCAACAUGGGAGGCUUGGGACGGGGGUCUUGGACCUGCUCAUGACCCCUGAGCAGCCUGCAAUGAGGUGUGUGUGCCCAGCCACUUGGCUGGGCAGGGAGAUGGAAUUCUCGGGUGCCAA,0.523
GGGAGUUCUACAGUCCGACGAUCAGCAAAUAUUGUCUUCAAAAGAAUGCACAAGAACCACAAUUAAGAUGUCAUAUUAUUUUGAAAGUACAAAAUAUACUAAAAGAGUGUGUGUGUAUUCACGCAGUUACUCGUGGAAUUCUCGGGUGCCAA,0.497
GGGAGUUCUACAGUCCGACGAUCUUUAAGUCCUCUAAUAAAAAUAAUGAGCCCUCCAAGUCCCUCUUGAUAGCUUCUAUUUGUUAGAAGAUGACCUAAGUCAGAAAAAAGUAGUUCCCCCUUCCUGAGAGACUUGGAAUUCUCGGGUGCCAA,0.228
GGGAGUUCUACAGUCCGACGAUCCUCCAUGACCCUCUGAGUGAUGGUUCUUUUGCGCCCUGUAGCUGUUCUAGGAUAGGAUGCAUGUUAGUAAGUUACGUAUGCAAGUCUGAGCGCGCGCGGCUGAUGGACAUUGGAAUUCUCGGGUGCCAA,1.12
